Measurements pooled from the literature.
A part holds a random share of what one study measured.

Series 1
Target: Max-binding protein MNT, bHLH-zipper, MAX partner unstated (MNT, Homo sapiens, UniProt Q99583, residues 220-300)
Method: protein-binding microarray
Molecule type: double-stranded DNA, one strand shown
Medium: in vitro
Tested at: not given
Notes: k-mer, scored over probes, only values ≥0.25
Reading: higher = stronger binding
Construct (chain): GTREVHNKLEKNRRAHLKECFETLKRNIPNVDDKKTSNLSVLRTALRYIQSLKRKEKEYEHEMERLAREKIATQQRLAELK
| Strand | E-score |
| --- | --- |
| AGCATGTA | 0.356 |
| ATCCCATG | 0.289 |
| CATGGACA | 0.338 |
| CCCGCCCA | 0.422 |
| CCTTCCAC | 0.271 |
| ACCATATG | 0.304 |
| ATGCGTGG | 0.354 |
| CATCGTGG | 0.346 |
| ACGTGGGC | 0.443 |
| CACATGAA | 0.323 |
| AGGTCATG | 0.251 |
| TGCGTCCA | 0.277 |
| CGACACGC | 0.372 |
| AACCACGC | 0.411 |
| CCTCCTCC | 0.258 |
| CCATGCAA | 0.269 |
| AGACCCCA | 0.32 |
| CGTGGACA | 0.38 |
| GTGGCACA | 0.291 |
| TGCGCACA | 0.317 |
| TCCCCACA | 0.294 |
| CGTGTCAC | 0.43 |
| ACGCGATA | 0.289 |
| CGTGTCTC | 0.366 |

Series 2
Target: RING finger protein unkempt homolog, zinc fingers 1-6, SBP tag (UNK, Homo sapiens, UniProt Q9C0B0, residues 30-357)
Chain of UniProt Q9C0B0 (30-357, looked up): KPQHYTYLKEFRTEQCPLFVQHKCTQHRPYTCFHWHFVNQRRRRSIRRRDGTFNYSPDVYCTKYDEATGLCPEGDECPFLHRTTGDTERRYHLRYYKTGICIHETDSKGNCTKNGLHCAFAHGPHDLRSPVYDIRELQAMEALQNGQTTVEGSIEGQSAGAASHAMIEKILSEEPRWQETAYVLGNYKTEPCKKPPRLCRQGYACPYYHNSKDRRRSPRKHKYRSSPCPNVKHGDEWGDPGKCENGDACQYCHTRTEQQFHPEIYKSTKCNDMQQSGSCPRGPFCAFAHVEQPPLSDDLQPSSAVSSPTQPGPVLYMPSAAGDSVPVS
Method: RNA Bind-n-Seq
Molecule type: RNA
Medium: in vitro
Tested at: 100 nM
Notes: RNA with constant flanks, vertebrate orthologous sites, ends assumed
Reference: input RNA pool
Reading: higher = stronger binding
Shared flanks, not repeated: GGGAGUUCUACAGUCCGACGAUC … CAACAGAGGAUUGAGCAUCA
| Strand | bound/input enrichment [ratio] |
| --- | --- |
| GAAGUUCCCCAUUGUCACUGAGAACCACCAAAUCUGACUUUUACAUUUGGUCUCAGAAUUUAGGUUCCUGCCCUGGUUUUUUUUUUUUUUUUUCUUUAAACCGUUUCCAAAAGUUCUUAA | 0.888 |
| ACAUUAUGGGUUACUCUCAUUUCUGUAGCAGAUAGAACAUUUUGCAAAACAUGUAUACACCUAGCUAAGCUGAGUAUAAUAUAUUUUUAUUAGACUGUAAAUAAAUACUCUUCUGCAUUG | 0.518 |
| UCAGAUCUAAGCCAACAGCAGUUCUAAAAUGCUAUUUAUUUGUGUCUGUAAGUUUGUACAUAGUAGUAUCAACCUCAUAUUGUUGCAGAAUUUUCCCCCCCCGCAAGUUUGAGUUGUGUU | 0.632 |
| ACGAAAGGCCAAAUUCCCUCCUCCCUUCUACUGCUUCUACCAACUGGAAGCACAGAAAACUAGAAUUUCAUUUAUUUUGUUUUUAAAAUAUAUAUGUUGAUUUCUUGUAACAUCCAAUAG | 0.773 |
| UGGGUUACUCCUAUUAUUAUCAAGUAGCUGGAAUUGUGAAGGUUGGAGUAGUUAGAUCUUUAGCUUUUAUUCCUUUUUUUUGUAUUACUAUCCAUGUGUAUAAAUUAUUGAUCAUGUUGC | 2.67 |
| GUGGGGAUGAGGGUGGGAUGGGAAAGGGAUGUAUGGAUGUUACUGGCAUUUUUAAGUGUUUUAGAGUUUUUUGGGGUUUGGGGUGGUUUUUUUUUCCUUGUUUUCCUUUUUUCCUUUUAA | 2.36 |
| UGGGUUAUUCCUAUUAUUAUCAAGUAGCUGGAAUUGUGAAGGUCGGAGUAGUUAGAUCUUUAGCUUUUAUUCCUUUUUUUUUGUAUUACUAUCCAUGUGUAUAAAUUAUUGAUCAUGUUG | 2.42 |
| CCCCAGCACUUUGAUAAAGACUGUGGAUUGGUUGCUGGUGUUUUCCUUGUUCUUUUUAAUUAGUUUCAUUAUGUAUGCUACCAUCCGCACUGAGAGUAUUCGGUGGCUGAUUCCAGGACA | 0.648 |
| CACAAUCUCUACUUAAGUAGGUAUUUACAUACCACAUUAAGCCUUCAUUUUACAUAUUUACAGCUUUUCCAUUUUCCAGAUGAGGUAAAAGAAUUUCAUGCUUAAAGUUAAUUGUGGUCU | 0.636 |
| CAUGUCCUUGUUACUGUGAUAUUUAAAACAUGCACAGUACUCAUUUUUCCCAAAUGAUUCUAGUAAUUGCCUAGAAUUAUCUUUUCUCUUACCUGUUAUUUAUCAAUUUUUCCCAGUAUU | 1.03 |
| CACGUCUGGUGAUAUUUGGCCUGGCCUUUCAGCUUAUGAUAAUAGUCCCAGAUCGCCCCAUAGUCCUUCACCAAUCGCUACACCACCUAGUCAGAGUUCAUCUUGCUCUGAUGCCCCCAU | 0.905 |

Series 3
Target: Histone acetyltransferase KAT6A, both winged helices, GST fusion (KAT6A, Homo sapiens, UniProt Q92794, residues 1-181)
Method: protein binding microarray
Molecule type: double-stranded DNA, one strand shown
Medium: in vitro
Tested at: not given
Notes: 8-mer, flanks averaged, mean of 2 arrays, mostly near background
Reference: not given
Reading: higher = stronger binding
Construct (chain): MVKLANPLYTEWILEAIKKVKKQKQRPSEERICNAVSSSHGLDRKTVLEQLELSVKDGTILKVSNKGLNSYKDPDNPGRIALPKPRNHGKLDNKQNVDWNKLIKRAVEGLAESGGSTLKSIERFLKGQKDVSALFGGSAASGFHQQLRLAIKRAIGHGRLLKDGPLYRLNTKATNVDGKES
| Strand | E-score |
| --- | --- |
| CATTGCCA | -0.175 |
| GGGATTCA | -0.06 |
| AGACTAAG | -0.0681 |
| GATCATGA | 0.00651 |
| GACATTGA | 0.047 |
| CTAAATAC | -0.0795 |
| TGGGATAA | -0.177 |
| AAACTGCG | 0.126 |
| ACGTCACG | 0.118 |
| GGTGCAGA | -0.0803 |
| AAGTTAAC | 0.0243 |
| CCTTTGTA | -0.203 |
| CCGCGAGA | 0.238 |
| ATAAAAAT | -0.0488 |
| CATACGGG | 0.252 |
| CGGTATGC | 0.189 |
| ACAACGGT | 0.132 |
| CTTTGAAC | -0.0525 |
| CTTGAGTA | -0.16 |

Series 4
Target: Hepatocyte nuclear factor 3-alpha (Foxa1, Mus musculus, UniProt P35582, residues 1-468, full length assumed)
Chain of UniProt P35582 (whole entry, looked up): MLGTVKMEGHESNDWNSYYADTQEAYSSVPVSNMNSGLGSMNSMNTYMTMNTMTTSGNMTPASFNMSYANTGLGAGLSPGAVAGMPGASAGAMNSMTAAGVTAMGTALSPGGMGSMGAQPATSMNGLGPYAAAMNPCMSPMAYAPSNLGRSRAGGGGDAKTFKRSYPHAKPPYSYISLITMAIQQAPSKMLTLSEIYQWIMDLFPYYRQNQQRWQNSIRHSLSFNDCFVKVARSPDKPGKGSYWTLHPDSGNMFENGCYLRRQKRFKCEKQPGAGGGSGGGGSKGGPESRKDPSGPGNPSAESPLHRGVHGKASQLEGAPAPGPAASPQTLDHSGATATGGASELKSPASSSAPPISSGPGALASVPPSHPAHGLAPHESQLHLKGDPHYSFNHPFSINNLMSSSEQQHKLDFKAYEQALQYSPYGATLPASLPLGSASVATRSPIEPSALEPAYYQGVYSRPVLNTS
Method: EMSA with sequencing
Molecule type: double-stranded DNA, one strand shown
Medium: in vitro
Tested at: 10 and 20 nM
Notes: whole designed probe, mean of two concentrations, ends assumed
Reference: negative control set to 0
Reading: higher = stronger binding
Shared flanks, not repeated: GTGAGCGGTGCCCATTGATGGGGAAC … TTTCACTGGGATCGTGGGGAC
| Strand | normalised bound fraction |
| --- | --- |
| ACAGCCTGGTAATACCTCAGGTTCCCAAGAACTCCAGGGCCTGTAAACATGCCAGTCAGAGCTCGGCCTGCTTAGAAGGCCGATGGCCTTTGAGTAAATAAACAACACCTTGCATAAATCTCTGCACTTTGAGTGGCAAAGAGGCCATTCCCTGAGGGTGACTTGGAAAACCAGAGGTGCAGTGACTCAGCCT | 0.461 ratio |
| ATCTTCCCCCTCTTCCTTGCCCCACCAGCTCACCTTCCCGGGTATCTGCAAATAAGGAAATTAATATAAGCCGGCATTCGTTAACCCTCTTCTGGCGCAAACTGCCAGAGCAAACAGATGAATCATGGTCCTTTGGCGACGCCAGGCTCCGGGAGAGCAAAGCACCGTGTCAGGGCCATGATCCGGGGTGGCC | 0.21 ratio |
| ATCTTCCCCCTCTCCTCATCATACGTCCCGCCCCTTCCCGGGTTATTTGCAGATAGGAAAATAAATAAAGCCGGCATTCGTTAACCCTCTTCTGGCGCAAACTGCTGTTTGCTCTGGATGAATCATGGTCCTTTGGCGACGCCAGGCTCCGGGAGAGCAAAGCACCGTGTCAGGGCCATGATCCGGGGTGGCC | 0.336 ratio |
| AATTTCCTGTGCTCTCTTTCCTGCCCTCATTCAAGTGGTCACCTTCCTTATTTCCCTCAGAAATACTCACAGAAGCTGTCAGAAGGGTTATGAGTCAACACTGAGCTCCTTGAACCCACATGTCTATCAGCCAACCTTGGTGTGGCTGGACCTCACATTCTGTTTGCCCTTCTGTGATGGATGAACTTGTGTT | 0.153 ratio |
| GGGTTCTTCTGAAGGCACATTGCACCTTCTAGAAGGGTATGACTCAGAAGGAAAGAGAGAAAAACCTCTACTGGCAAGAGGAAATGGCTGCAGAGATTACTTTATCTGAAAATGGCACACGCTTTTATTAAGACATAAATGCCAGTGATGGATTCTGCTCTTGGCGTGTGGCTGTGCTCCCCAGCCCTGAGGT | -0.0761 ratio |
| GCATGAGACAGCATTTCTTCTTGTCCTCGGGGCCTGCAGGAAGTTTTTAAGTAATCTGCTTTTGTGCCTCTTCCAAATCTCCTCCTATGACCCTGTTTACCTTACATCACAAGAAACAATCAATAAAAGTGGTTTGTGTTCGTGAGTGCCGTGTGTTTGACAAAGGCGTTGATAACTGAGAGCTGGTAGTGGA | 0.176 ratio |
| ATTAATACATTACCTCAAGAAGAAAAAACTAGTGAGAACACACAACTTATATAAAAACATTATCTTTAAAAGACATTGGAAATTGTATTTCCTGTTTACTTTGTGTTCTTGTTTAAATGTCAAAGAGAGAAAAACCCTAGTGAATTTAAAAAAAAAAAAAAAAAAAATTAGAAAATACAAATTAGTAAAAATA | 0.391 ratio |
| GTTGCCATAGCTCTGCTGAATGATCATTTGTTGGATTCCATGAATCTCAAAAAAATGAAAGGATCTCTCTTTAGGTGTGTCTGGGGCTATCAAAGTAATCTAGTCAGATGAATTATTGATAGGCTTTGGATCAATGAAATGCCACTGGAATGACAAATGATAAGCACAGTAAAACTGTCACAATCCTTATTCC | -0.064 ratio |

Series 5
Target: RNA binding protein fox-1 homolog 2, RRM domain, GST-SBP tag (RBFOX2, Homo sapiens, UniProt O43251-10, residues 100-194)
Method: RNA Bind-n-Seq
Molecule type: RNA
Medium: in vitro
Tested at: 365 nM
Notes: natural RNA segment, single round, ends assumed
Reference: no-protein control
Reading: higher = stronger binding
Shared flanks, not repeated: GGGAGUUCUACAGUCCGACGAUC … UGGAAUUCUCGGGUGCCAA
Residues (chain): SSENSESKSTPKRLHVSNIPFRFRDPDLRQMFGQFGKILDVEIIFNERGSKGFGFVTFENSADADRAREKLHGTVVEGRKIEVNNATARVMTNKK
| Strand | RBNS enrichment (R) |
| --- | --- |
| UGGCACAGAUCUUUGUCCCAAGCCUUCCUACUAUUCUUGCCUUAUUCUUAGUAUGCGUUGCAUCGGGGAUUUUAGACCAGGCUGCCUCUGAAAUGGUUAUUUGCAGCCCA | 3.24 |
| GGGACCUGCUUGUGAACAUGUGUAUAGAGUGCCAGCUCAGAUAAUAAGCUUACCAGUGACCUUGUUCACUUUGAGUCAGGGAACGUAUUUGUAAAAUUAACACUAAAGAU | 0.513 |
| UUAGCCCAUUGCCAAAAGGUUUUACUGUCUUAAAGCUGUCUUUCUGAGAUCUAAUUCCAAGGACUUCUCCACAGCUAAGUGAGAUGCCUCACACCAUUAGGUGAUGCUUU | 0.32 |
| UCACCUUGCAGCUUGUGCUGAGACUGACCCAAGUGCAGCUAGCACUGGGACACAGAUCCUUGUCUUCAGCACCUUCCAAGGAGCCAACUUUUAUUCCCUUUCCUCUCUCC | 0.555 |
| CUCCCACUCUGGCUCCUUGUUCUCUGGCAAACCGUAGCGUGGCUGCCAGCAUCCUGUAGCGCGGAUAGCUGCUUCCAUGGCCACAGGCCUGAACCGGUGUGUAUUUGGGG | 0.303 |
| UGGCAGAUUUGGGGCGCCAACCUGAUUUUAUGGAUUUUGAGUUAGAUUCUCUACCCUCUAUCAAUACUAAAAAUAGAUUAGGAGGGUUUUUUUUUCUGUUUAUCAUGUUG | 0.332 |
| CUUAUUUUCCACCAUUUAAAAAUAAUAAACAUGUUUCUUACCACCGUAUGUUCAUAUGGAUAAGACUAAGUCCAAAAAGGUGACUACAUCCAAAUUUAUAUUUCGGGGAA | 0.398 |
| CCAGUUCCCCUCUCUGCCCCCACACUCGUCUUAGUUGCUUCACACUGGUCACUGGCCCUGCACACUGGGCUAUUGCUUUAUCCCUAUCCUGAGAGCAGCCCCUCCCCACC | 0.851 |
| AGCCCAGACCACCACAGCUGGCCACGACAUUGCCCUUAAGUAAUAUGCAUUGGCCAGAGAGCCCGGGCUGGCUGUGCACAGCAUUCAUGUAGCUGAUUUCUAGCUUUUUU | 1.84 |
| UAGGCUGCCUCAUCACGCCACUGGAGUCCACACUUGAAUUUGGGCAGCUACCACGGGUCUGCCAUGCUCUGGAGGAGCAAGGGGGCCACAUCCCCACCCCAGCUGUUACC | 0.372 |
| AGAGAAGAUGGCCACCAGCUGGCUUCCUAGAUAUUUUAAACUUUUGUUCUUUAAUAUGCUGUCCAUGGCUGAGUUUAUUAGUACAUGGGCUUAGUGACCACAAAAUAUUU | 0.455 |
| UUUCCACAAAAUCUGUCCAAAGGAGGCUGGCAGGUAUGGAAGGGUUUGUGGCUGGGGGCAGGAGGGCCCUACCUGAUUGGUGCAACCCUUACCCCUUAGCCUCCCUGAAA | 0.611 |

Repeated from above (series 1):
| Strand | E-score |
| --- | --- |
| GTGGCACA | 0.291 |
| ACGCGATA | 0.289 |
| TCCCCACA | 0.294 |
| TGCGCACA | 0.317 |
| ACGTGGGC | 0.443 |
| CCTTCCAC | 0.271 |
